Assay results collected from several papers.
Protocols differ between the studies behind these lines. Several values in a cell are separate wells, animals, samples, runs or records. ± gives the spread as reported.
EZH1 in PRC2 complex: Histone-lysine N-methyltransferase EZH1, in PRC2 complex (EZH1, Homo sapiens, UniProt Q92800)
Chain of UniProt Q92800 (whole entry, looked up): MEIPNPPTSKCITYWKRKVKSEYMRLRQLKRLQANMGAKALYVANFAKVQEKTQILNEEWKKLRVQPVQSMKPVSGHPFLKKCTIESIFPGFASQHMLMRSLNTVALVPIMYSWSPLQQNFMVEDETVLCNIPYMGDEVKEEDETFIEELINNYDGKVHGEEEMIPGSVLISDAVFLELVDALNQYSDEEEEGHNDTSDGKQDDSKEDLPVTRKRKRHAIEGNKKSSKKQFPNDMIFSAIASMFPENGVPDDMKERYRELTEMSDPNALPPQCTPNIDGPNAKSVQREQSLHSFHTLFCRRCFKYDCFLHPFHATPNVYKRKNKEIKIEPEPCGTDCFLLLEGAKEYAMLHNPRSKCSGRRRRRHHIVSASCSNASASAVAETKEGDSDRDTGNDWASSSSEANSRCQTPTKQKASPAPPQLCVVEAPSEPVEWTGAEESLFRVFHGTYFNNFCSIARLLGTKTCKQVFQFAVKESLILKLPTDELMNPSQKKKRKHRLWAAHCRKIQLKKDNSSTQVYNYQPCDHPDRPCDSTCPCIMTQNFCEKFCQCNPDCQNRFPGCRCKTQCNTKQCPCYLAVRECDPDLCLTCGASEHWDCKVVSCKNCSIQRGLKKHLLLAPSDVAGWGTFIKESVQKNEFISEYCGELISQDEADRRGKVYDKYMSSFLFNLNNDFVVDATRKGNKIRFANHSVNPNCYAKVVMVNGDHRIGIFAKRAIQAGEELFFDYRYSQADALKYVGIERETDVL
Ppara F272I: Peroxisome proliferator-activated receptor alpha (Ppara, Mus musculus, UniProt P23204, F272I)
Chain of UniProt P23204 (whole entry, unmodified, looked up): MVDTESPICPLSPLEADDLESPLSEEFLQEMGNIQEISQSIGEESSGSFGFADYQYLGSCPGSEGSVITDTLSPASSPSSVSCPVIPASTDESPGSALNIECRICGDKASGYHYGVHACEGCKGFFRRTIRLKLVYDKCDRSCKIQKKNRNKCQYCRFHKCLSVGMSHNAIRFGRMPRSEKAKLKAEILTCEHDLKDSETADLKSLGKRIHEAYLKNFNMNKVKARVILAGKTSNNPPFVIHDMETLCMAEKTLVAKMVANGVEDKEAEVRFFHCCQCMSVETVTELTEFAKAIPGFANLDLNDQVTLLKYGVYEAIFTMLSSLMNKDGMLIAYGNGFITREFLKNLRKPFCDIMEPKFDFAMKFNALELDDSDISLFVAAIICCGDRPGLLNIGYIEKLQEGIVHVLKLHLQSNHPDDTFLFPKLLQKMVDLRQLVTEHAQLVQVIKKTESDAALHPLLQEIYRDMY
APP Aβ40 fibrils: Amyloid-beta precursor protein, Aβ40 fibrils (APP, Homo sapiens, UniProt P05067)
Chain of UniProt P05067 (whole entry, looked up): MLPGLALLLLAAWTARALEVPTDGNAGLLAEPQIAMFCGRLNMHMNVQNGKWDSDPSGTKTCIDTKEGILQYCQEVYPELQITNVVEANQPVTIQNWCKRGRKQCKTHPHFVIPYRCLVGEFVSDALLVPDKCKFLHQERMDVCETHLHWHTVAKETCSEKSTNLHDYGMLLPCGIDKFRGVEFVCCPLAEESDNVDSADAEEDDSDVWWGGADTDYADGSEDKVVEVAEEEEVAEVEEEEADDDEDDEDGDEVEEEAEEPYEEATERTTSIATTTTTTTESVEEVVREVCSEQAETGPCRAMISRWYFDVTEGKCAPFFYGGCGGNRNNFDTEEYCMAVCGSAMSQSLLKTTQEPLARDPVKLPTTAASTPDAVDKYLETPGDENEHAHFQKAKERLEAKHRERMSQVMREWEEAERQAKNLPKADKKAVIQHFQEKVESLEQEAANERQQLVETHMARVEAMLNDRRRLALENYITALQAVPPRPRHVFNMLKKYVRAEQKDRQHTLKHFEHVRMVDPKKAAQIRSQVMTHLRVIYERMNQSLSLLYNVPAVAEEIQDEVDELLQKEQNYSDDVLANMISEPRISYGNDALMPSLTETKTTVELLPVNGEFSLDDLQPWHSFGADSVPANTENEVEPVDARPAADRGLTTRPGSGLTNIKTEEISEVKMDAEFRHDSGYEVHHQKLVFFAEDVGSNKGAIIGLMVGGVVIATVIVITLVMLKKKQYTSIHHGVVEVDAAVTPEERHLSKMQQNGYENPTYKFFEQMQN
APP Aβ aggregates: Amyloid-beta precursor protein, Aβ aggregates (APP, Homo sapiens, UniProt P05067)
PTR2: Peptide transporter PTR2 (PTR2, Saccharomyces cerevisiae, UniProt P32901)
Chain of UniProt Q9PHN5 (whole entry, looked up): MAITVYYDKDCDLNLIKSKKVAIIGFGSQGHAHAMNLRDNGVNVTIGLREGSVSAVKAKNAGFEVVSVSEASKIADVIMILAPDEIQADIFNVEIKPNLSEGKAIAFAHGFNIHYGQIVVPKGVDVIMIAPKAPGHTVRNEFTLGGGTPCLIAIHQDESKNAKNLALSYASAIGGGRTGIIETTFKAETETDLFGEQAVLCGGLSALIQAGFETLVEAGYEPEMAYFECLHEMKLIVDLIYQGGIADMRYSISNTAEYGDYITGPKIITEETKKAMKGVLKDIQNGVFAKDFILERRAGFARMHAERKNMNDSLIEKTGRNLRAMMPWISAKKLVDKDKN
Chain of UniProt P32901 (whole entry, looked up): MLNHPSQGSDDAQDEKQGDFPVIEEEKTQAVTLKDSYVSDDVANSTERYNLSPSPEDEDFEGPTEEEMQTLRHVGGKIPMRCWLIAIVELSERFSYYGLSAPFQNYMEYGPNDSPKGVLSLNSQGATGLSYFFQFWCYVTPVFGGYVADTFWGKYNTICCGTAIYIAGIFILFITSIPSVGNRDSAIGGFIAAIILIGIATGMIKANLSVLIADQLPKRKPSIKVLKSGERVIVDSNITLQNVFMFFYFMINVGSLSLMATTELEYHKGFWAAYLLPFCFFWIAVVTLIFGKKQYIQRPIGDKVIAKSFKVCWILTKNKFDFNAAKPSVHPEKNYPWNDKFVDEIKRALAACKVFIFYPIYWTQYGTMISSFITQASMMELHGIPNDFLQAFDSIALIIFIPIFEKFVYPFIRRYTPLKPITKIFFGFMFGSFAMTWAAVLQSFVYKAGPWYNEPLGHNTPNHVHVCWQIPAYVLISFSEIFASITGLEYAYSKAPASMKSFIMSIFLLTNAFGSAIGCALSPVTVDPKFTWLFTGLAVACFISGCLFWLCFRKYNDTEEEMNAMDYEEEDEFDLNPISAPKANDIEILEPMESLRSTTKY
Chain of UniProt P27815 (whole entry, looked up): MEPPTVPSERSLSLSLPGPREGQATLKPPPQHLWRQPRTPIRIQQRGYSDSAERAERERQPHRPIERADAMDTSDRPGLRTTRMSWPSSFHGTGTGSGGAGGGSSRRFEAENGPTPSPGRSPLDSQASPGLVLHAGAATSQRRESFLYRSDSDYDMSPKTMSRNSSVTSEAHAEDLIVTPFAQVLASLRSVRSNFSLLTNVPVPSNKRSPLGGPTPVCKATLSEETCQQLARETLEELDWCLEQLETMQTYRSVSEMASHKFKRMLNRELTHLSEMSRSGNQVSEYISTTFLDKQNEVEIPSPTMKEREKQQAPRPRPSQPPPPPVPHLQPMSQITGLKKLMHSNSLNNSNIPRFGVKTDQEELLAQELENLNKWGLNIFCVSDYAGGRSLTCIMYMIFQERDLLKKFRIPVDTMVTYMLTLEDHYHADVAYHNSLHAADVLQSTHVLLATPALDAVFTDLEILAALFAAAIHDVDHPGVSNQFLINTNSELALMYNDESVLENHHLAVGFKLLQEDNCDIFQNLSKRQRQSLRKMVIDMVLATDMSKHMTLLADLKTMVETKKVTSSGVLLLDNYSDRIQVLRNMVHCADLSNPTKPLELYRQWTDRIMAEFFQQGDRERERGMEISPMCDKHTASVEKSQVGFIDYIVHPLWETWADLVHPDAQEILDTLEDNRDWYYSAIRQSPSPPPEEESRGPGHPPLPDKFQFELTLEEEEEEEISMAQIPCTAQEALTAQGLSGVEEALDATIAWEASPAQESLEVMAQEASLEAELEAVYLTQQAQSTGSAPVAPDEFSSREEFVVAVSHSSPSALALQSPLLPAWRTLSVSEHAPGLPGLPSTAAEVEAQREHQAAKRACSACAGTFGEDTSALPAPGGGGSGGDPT
Chain of UniProt O15244 (whole entry, looked up): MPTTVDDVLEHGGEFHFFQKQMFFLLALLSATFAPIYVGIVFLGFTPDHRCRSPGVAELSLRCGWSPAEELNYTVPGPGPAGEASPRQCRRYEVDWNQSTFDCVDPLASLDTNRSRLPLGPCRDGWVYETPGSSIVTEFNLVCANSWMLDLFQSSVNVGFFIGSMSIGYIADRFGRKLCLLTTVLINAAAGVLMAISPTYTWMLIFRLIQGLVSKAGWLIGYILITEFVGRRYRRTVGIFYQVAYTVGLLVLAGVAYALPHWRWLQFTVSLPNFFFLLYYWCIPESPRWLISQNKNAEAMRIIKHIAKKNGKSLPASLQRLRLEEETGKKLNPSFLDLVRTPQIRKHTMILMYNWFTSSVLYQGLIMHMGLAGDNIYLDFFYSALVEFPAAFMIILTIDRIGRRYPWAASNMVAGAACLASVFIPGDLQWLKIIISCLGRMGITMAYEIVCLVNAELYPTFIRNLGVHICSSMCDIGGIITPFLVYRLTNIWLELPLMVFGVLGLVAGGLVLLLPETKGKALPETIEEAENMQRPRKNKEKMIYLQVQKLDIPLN
Chain of UniProt O60701 (whole entry, unmodified, looked up): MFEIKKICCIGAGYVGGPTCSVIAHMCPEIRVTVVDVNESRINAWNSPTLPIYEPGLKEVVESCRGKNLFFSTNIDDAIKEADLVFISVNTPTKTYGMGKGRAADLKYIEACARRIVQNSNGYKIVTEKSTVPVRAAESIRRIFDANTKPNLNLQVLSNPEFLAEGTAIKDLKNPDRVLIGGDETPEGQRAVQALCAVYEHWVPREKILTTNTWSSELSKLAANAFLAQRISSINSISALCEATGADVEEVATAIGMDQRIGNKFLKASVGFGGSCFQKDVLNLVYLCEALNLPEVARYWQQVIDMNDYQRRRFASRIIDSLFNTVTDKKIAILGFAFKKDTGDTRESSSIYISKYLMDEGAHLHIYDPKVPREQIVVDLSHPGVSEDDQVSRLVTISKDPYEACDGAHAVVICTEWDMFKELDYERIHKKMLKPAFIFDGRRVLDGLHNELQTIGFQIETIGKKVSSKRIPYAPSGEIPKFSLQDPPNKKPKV

COc1cc(C)[nH]c(=O)c1CN1CCc2c(Cl)cc([C@H](OC)C3COC3)c(Cl)c2C1=O  Ki (EZH1 in PRC2 complex; enzyme activity, inhibitor; together with: activator peptide): 0.008 µM
CCCCCC/C=C\CCCCCCCC(=O)SCCNC(=O)CCNC(=O)[C@H](O)C(C)(C)COP(=O)(O)OP(=O)(O)OC[C@H]1O[C@@H](n2cnc3c(N)ncnc32)[C@H](O)[C@@H]1OP(=O)(O)O  Ki (Ppara F272I): 0.028 ± 0.003 µM
NCc1ccc(-c2nc3ccccc3s2)cc1  Ki (APP Aβ40 fibrils; amyloid-beta fibril binding, ThT fluorescence competition; together with: thioflavin T): 0.005 µM
CCOC(=O)C(C)(C)Oc1ccc(Cl)cc1  Ki (Ppara F272I): 0.051 ± 0.003 µM
COc1ccc(C(=O)Nc2ccc(N3CCN(c4ccccn4)CC3)cn2)cc1  Ki (APP Aβ aggregates; [3H]PiB competition binding, measured: amyloid-beta; Alzheimer's disease brain homogenate; together with: [3H]PiB): 0.0431 ± 0.0038 µM
CCCCCCCCCCCCCCCCCC(=O)SCCNC(=O)CCNC(=O)[C@H](O)C(C)(C)COP(=O)(O)OP(=O)(O)OC[C@H]1O[C@@H](n2cnc3c(N)ncnc32)[C@H](O)[C@@H]1OP(=O)(O)O  Ki (Ppara F272I): 0.019 ± 0.002 µM
CN/C(=N/CCSCc1nc[nH]c1C)NC#N  Ki (SLC22A2 (Homo sapiens, UniProt O15244); inhibitor): 26.2 µM
COc1ccc(C(=O)Nc2ccc(N3CCC4(CC3)CCN(c3ccccn3)C4)cc2)cc1  Ki (APP Aβ aggregates; [3H]PiB competition binding, measured: amyloid-beta; Alzheimer's disease brain homogenate; together with: [3H]PiB): ≥ 0.76 µM
OC[C@H]1OC(O)[C@H](O)[C@@H](O)[C@@H]1O (stereo partly drawn)  Ki (Hexokinase-3 (HK3, Homo sapiens, UniProt P52790); substrate inhibition; together with: ATP 2 mM, sub-saturating): 3400 ± 100 µM
O=c1ccn([C@@H]2O[C@H](COP(=O)(O)OP(=O)(O)O[C@H]3OC[C@@H](O)[C@H](O)[C@H]3O)[C@@H](O)[C@H]2O)c(=O)[nH]1  Ki (UGDH (Homo sapiens, UniProt O60701, A104L); inhibitor, steady-state kinetics): 2.3 ± 0.2 µM
Cc1ccc([C@H]2C[C@@H]2COc2cc(NCc3nnc(C)s3)nc(C)n2)nc1  Ki (3',5'-cyclic-AMP phosphodiesterase 4A, isoform PDE4A1 (PDE4A, Homo sapiens, UniProt P27815); enzyme activity, inhibitor, IMAP fluorescence polarization; isoform PDE4A1, together with: cAMP substrate): 19.1 µM
COc1ccc(C(=O)Nc2ccc(N3CCCN(c4ccccn4)CC3)cn2)cc1  Ki (APP Aβ aggregates; [3H]PiB competition binding, measured: amyloid-beta; Alzheimer's disease brain homogenate; together with: [3H]PiB): > 1 µM
F[C@@H]1CCN(c2ccc(-c3ccc4sc(-c5cccnc5)cc4n3)cn2)C1  Ki (APP Aβ aggregates; binding; Alzheimer's disease brain homogenate; together with: [3H]PiB): 9.6 ± 0.8 µM
C[C@H](N)C(=O)N[C@@H](C)P(=O)(O)O  Ki (PTR2; competitive uptake, fluorescence; Saccharomyces cerevisiae expressing PTR2): 920 µM
O=c1[nH]c2nc(-c3ccccc3)sc2c(=O)n1O  Ki (Ketol-acid reductoisomerase (NADP(+)) (ilvC, Campylobacter jejuni subsp. jejuni serotype O:2, UniProt Q9PHN5); pre-incubation 3 h without NADPH, together with: NADPH 200 µM, AL 1 mM): 0.014 µM and 0.0142 µM
CCCCCCCCCCCCCCCCCC(=O)O  Ki (Ppara F272I): 0.015 ± 0.001 µM
Oc1ccc(N=Nc2ccc(-c3nc4ccccc4s3)cc2)cc1CN(Cc1ccccc1)Cc1ccccn1  Ki (APP Aβ40 fibrils; binding to Aβ fibrils, thioflavin T competition; Aβ 5 µM, together with: ThT 2 µM): 1.5 µM
CC[C@H]1OC(=O)C[C@@H](O)[C@H](C)[C@@H](O[C@@H]2O[C@H](C)[C@@H](O[C@H]3C[C@@](C)(O)[C@@H](O)[C@H](C)O3)[C@H](N(C)C)[C@H]2O)[C@@H](CC=O)C[C@@H](C)C(=O)/C=C/C(C)=C/[C@@H]1CO[C@@H]1O[C@H](C)[C@@H](O)[C@@H](OC)[C@H]1OC  Ki (rplD/rplV (Escherichia coli, UniProt P60723+P61175); ribosome binding): 2.26 ± 0.3 µM
N[C@@H](CS)C(=O)O  Ki (Collagen-like surface protein SclA (Enterococcus faecalis, UniProt Q831E3); selenide production, competitive inhibitor; together with: pyruvate 5 mM): 550 ± 90 µM
CCC(=O)O[C@@H](O[P@](=O)(CCCCc1ccccc1)CC(=O)N1C[C@H](C2CCCCC2)C[C@H]1C(=O)O)C(C)C  Ki (PTR2; competitive uptake, fluorescence; Saccharomyces cerevisiae expressing PTR2): > 770 µM
CC[C@H](C)n1cc(C)c2c(C(=O)NCc3c(C)cc(C)[nH]c3=O)cc(-c3ccc(N4CCNCC4)nc3)cc21  Ki (EZH1 in PRC2 complex; enzyme activity, inhibitor; together with: activator peptide): 0.03 µM
